Measured values from different studies.
Compare with care: the assays were run in different laboratories. “And” joins repeats or separate records; there may be more than shown.
RPS6KA3: Ribosomal protein S6 kinase alpha-3 (RPS6KA3, Homo sapiens, UniProt P51812)

CCn1cc(C(=O)O)c(=O)c2c(N)c(F)c(NC3CCCCC3)cc21 — inhibition (RPS6KA3; kinase activity; 0.1 µM, added: ATP at Km): 8.5%
Nc1nc(Nc2ccccc2)sc1C(=O)c1ccccc1 — remaining activity (RPS6KA3; enzyme activity, inhibitor; 10 µM): 47%
C=CC(=O)Nc1cccc(-c2cnc3[nH]cc(C(=O)NC(C)(C)C)c3n2)c1 — inhibition (RPS6KA3; enzyme activity, inhibitor; 0.1 µM): 23%
C=CC(=O)Nc1cc(-c2nn(C3CCN(CCNC(=O)[C@H](C)CCC45CC6CC(CC(C6)C4)C5)CC3)c3ncnc(N)c23)ccc1Oc1ccccc1 — inhibition (Ribosomal protein S6 kinase alpha-3, C-terminal kinase domain (RPS6KA3, Homo sapiens, UniProt P51812); inhibitor, KiNativ profiling; biochemical; 2 µM): -0.2%
C#CCOC(=O)[C@]1(C)C=C(C(=O)OC(C)(C)C)C(=O)CC1 — initial slope (RPS6KA3; kinase activity, RSK sensor): 849 and 655 and 765
O=C(Cc1ccc(OCc2ccccc2)cc1)NC1(C(=O)O)CCN(C(=O)c2ccc(-c3cccc(Cl)c3)cc2)CC1 — activity vs control (RPS6KA3; enzyme activity, inhibitor; 10 µM): 112%
Cc1ccc(C)c(-c2ccc3nc(NC(=O)C4CCCCC4)nn3c2)c1 — remaining activity (RPS6KA3; enzyme activity, Dundee kinase panel; 10 µM): 62%
O=C(Nc1ccc(Oc2ncnc3[nH]cc(-c4ccccc4)c23)c(F)c1)c1c2n(n(-c3cc(F)ccc3F)c1=O)CCCC2 — inhibition (RPS6KA3; enzyme activity, inhibitor; 0.5 µM): 10%
NC(=O)C[C@H]1CCc2sc3ncnc(O[C@H]4CC[C@H](N5CCOCC5)CC4)c3c21 — inhibition (RPS6KA3; enzyme activity, inhibitor; 10 µM): 20%
Cc1nc2c(F)cc(-c3nc(Nc4ccc(CNC(=O)CCCCCCC(=O)NO)cc4)ncc3F)cc2n1C(C)C — inhibition (RPS6KA3; enzyme activity, inhibitor; 1 µM): 58%
C=CC(=O)N1Cc2nc(-c3cc(-c4cc(Cl)cnc4Cl)c(F)cc3F)n(-c3ccncn3)c2C1 — inhibition (RPS6KA3; cell-free assay, inhibitor; 1 µM): 0.6%
CN1CC[C@@H](COc2cnc(C#N)cc2-c2ccn3nc(NC(=O)C4CC4)cc3c2)C1 — inhibition (RPS6KA3; inhibitor, KinaseProfiler panel; 1 µM): 18%
Cc1cccc(-c2ccc3nc(NC(=O)C4CCOCC4)nn3c2)c1 — remaining activity (RPS6KA3; enzyme activity, Dundee kinase panel; 10 µM): 56%
COc1ccc(C(=O)/C=C/c2ccccc2-c2c[nH]c3ccc(C#N)cc23)c(O)c1 — inhibition (RPS6KA3; enzyme activity, inhibitor; 20 µM): 6%
Cc1cccc(O[C@H]2CCC[C@@H](C(C)CNCc3ccncc3)C2)c1 (relative stereo) — inhibition (RPS6KA3; enzyme activity, inhibitor; 10 µM): -4%

Some of these lines once more:
CCn1cc(C(=O)O)c(=O)c2c(N)c(F)c(NC3CCCCC3)cc21 — inhibition (RPS6KA3; kinase activity; 0.1 µM, added: ATP at Km): 8.5%
Nc1nc(Nc2ccccc2)sc1C(=O)c1ccccc1 — remaining activity (RPS6KA3; enzyme activity, inhibitor; 10 µM): 47%
